Measurements gathered from unrelated publications.
Numbered parts are unrelated; each lists some results of a single study. Positions count from the first letter of the parent shown.

Block 1 — method: DHFR PCA, deep sequencing; sample: yeast; added: (+)-ABA 710 µM; reference: wild-type fitted maximum; direction: higher = stronger binding
Target: ABI1, truncated, D143A, DHFR fusion (Arabidopsis thaliana)
Setting: methotrexate growth selection, single substitutions
Starting sequence: PYL1, truncated, DHFR fusion (Arabidopsis thaliana); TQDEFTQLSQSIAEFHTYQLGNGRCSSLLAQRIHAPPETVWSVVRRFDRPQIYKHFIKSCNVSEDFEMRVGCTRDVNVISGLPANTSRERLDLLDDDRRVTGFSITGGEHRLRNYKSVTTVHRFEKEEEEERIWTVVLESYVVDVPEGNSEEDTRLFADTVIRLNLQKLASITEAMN
For `D65P`, “relative binding score” read 103%.
`N85M`: “relative binding score” 104%.
`D65W`: “relative binding score” 90.9%.
Under “relative binding score”, `N165E` is recorded as 6.58%.
`E174T`: “relative binding score” 94.2%.
For `E125K`, “relative binding score” read 113%.
Under “relative binding score”, `S27M` is recorded as 88.6%.
Under “relative binding score”, `K126P` is recorded as 114%.
`D75M`: “relative binding score” 100%.
`T1K` — result for “relative binding score”: 102%.
Under “relative binding score”, `S87H` is recorded as 18.4%.
For `L29W`, “relative binding score” read 63.5%.

Block 2 — method: universal PBM; molecule type: double-stranded DNA, one strand shown; sample: in vitro; concentration: not given; direction: higher = stronger binding
Target: Sal-like protein 4, full length isoform B (SALL4, Homo sapiens, UniProt Q9UJQ4-2, residues 1-616)
Setting: 8-mer, flanks averaged, mean of replicates
The E-score of `GAGACTCC` is reported as -0.136.
The E-score of `ATCTGAGC` is reported as 0.0593.
For `AGCAATAC`, the E-score was 0.191.
For `TGAAATAA`, the E-score was 0.325.
`AGCCTAGA` gave an E-score of -0.0669.
`CATGGCCC` has an E-score of -0.25.
The E-score of `GCTCGGAC` is reported as -0.266.
`AGGTGTCG` gave an E-score of -0.16.
The E-score of `AAGCTTTC` is reported as -0.0679.
`CTACCTTA` gave an E-score of 0.0177.
With `ATGCAGCG` the E-score was -0.117.
For `CACCAGTC`, the E-score was -0.343.
`CACGAAGC` has an E-score of -0.192.
`CGAGCGAG` has an E-score of -0.00077.
With `GCTCTTCC` the E-score was -0.178.
For `ACTACCTA`, the E-score was 0.0874.
`TACCCACA` gave an E-score of -0.00847.

Block 3 — target: CCND2, cyclin fold, Cln2 fusion (human); method: yeast growth competition, sequencing; sample: yeast; setting: weak parent motif; reference: not given; direction: higher = stronger binding
Starting sequence: CDC6 docking peptide (human); TLKGRRLVFDNQL; partner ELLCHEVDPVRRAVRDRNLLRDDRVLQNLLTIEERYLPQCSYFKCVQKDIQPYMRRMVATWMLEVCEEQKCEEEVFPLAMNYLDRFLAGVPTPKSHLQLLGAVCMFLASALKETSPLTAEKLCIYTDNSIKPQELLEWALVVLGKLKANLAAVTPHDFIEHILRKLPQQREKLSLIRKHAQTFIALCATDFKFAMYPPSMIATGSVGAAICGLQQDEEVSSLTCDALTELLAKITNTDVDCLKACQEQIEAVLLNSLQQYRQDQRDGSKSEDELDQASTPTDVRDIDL
`TLKGRRLVFMNQL [D10M]` — result for “normalised enrichment score”: 0.592.
`TLKGRSLVFDNQL [R6S]` — result for “normalised enrichment score”: -0.148.
For `TLKGRRLVFRNQL [D10R]`, “normalised enrichment score” read 0.272.
`MLKGRRLVFDNQL [T1M]`: “normalised enrichment score” 0.0249.
Under “normalised enrichment score”, `TLKGIRLVFDNQL [R5I]` is recorded as -0.0984.
Under “normalised enrichment score”, `TLKGRRLVFYNQL [D10Y]` is recorded as 0.879.
Under “normalised enrichment score”, `TLKGRRTVFDNQL [L7T]` is recorded as -0.251.
`TLKGKRLVLDNQL [R5K F9L]` — result for “normalised enrichment score”: 0.238.
`TLKGRTLVFDNQL [R6T]`: “normalised enrichment score” 0.109.
`TLKGRRLVFDNNL [Q12N]`: “normalised enrichment score” 0.42.
`TLKIRRLVFDNQL [G4I]`: “normalised enrichment score” 0.438.
Under “normalised enrichment score”, `TIKGRRLVFDNQL [L2I]` is recorded as 0.236.
`TLKGQRLVFDNQL [R5Q]` — result for “normalised enrichment score”: 0.0962.
`TLKGRRFVFDNQL [L7F]`: “normalised enrichment score” -0.132.

Further values, each from its own experiment
With `PhoQ, residues 284 288 289 292 302 303 TAVSDG` the fold induction was 2.05 (PhoP, residues 12 14 15 18 19 AWHSL (Escherichia coli, UniProt P23836); Sort-seq, measured: YFP reporter; E. coli; PhoQ-PhoP variant library, added: 10 µM Mg2+; reference: high Mg2+ state, higher = stronger signaling).

Excerpt of the above (block 1):
For `D65P`, “relative binding score” read 103%.
`N85M`: “relative binding score” 104%.
`D65W`: “relative binding score” 90.9%.
Under “relative binding score”, `N165E` is recorded as 6.58%.
`E174T`: “relative binding score” 94.2%.
For `E125K`, “relative binding score” read 113%.
Under “relative binding score”, `S27M` is recorded as 88.6%.
